{"data": "Published values gathered from unrelated publications", "note": "A part holds a random share of what one study measured. Changes are numbered by the printed parent chain."}
{"data": "Block 1", "target": "Ras GTPase-activating protein-binding protein 1, full length (G3BP1, Homo sapiens, UniProt Q13283)", "technique": "RNA Bind-n-Seq", "molecule type": "RNA", "sample": "in vitro", "concentration": "200 nM", "notes": "whole 134-nt RNA, ends assumed", "added": "150 mM KCl", "baseline": "input library", "reading": "higher = stronger binding", "all sequences stand within": "GGGAGUUCUACAGUCCGACGAUC … UGGAAUUCUCGGGUGUCAAGG", "UniProt Q13283, sequence (whole entry, looked up)": "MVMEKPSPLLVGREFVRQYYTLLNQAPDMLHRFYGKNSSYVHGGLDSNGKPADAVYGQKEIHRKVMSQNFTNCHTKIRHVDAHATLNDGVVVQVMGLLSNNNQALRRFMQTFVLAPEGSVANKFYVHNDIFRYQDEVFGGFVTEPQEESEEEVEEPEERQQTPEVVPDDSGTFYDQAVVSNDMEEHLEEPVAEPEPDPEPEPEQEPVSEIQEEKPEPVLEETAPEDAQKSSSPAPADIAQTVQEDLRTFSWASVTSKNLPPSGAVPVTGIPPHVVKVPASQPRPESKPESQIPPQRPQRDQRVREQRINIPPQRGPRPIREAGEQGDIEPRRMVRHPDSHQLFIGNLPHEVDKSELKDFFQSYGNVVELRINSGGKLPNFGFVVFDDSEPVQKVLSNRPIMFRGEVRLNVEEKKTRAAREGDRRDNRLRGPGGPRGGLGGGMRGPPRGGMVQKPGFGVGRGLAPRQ"}
{"Oligonucleotide": "UCCUGUGCUACACAUCGUAUGUACCGAAUCAAAUUUUUUUAAACCCCCAAAUUUUUAAAAAAGUAUUAUGUUACGCCGUUCGGAUCUGCA", "log2 enrichment": 0.179}
{"Oligonucleotide": "AUAGAUUGCGCAGUCUCUUUGUGGAGAGGACUUGAUCAUUAAAGGAAUCAGCGUUCAUAUAUCCAAUGCCGAACCUAAGCACAAUAGCAA", "log2 enrichment": -0.193}
{"Oligonucleotide": "UCAAGUCCUGUGCUACACAUCGUAUGUACCGAAUCGGCCCGGCCCGGGCCCGGGAAAGUAUUAUGUUACGCCGUUCGGAUCUGCACUUCC", "log2 enrichment": -0.593}
{"Oligonucleotide": "CUCAAGUCCUGUGCUACACAUCGUAUGUACCGAAUCGGAAAGGAAAGGAAAGGAAAGUAUUAUGUUACGCCGUUCGGAUCUGCACUUCCA", "log2 enrichment": -0.655}
{"Oligonucleotide": "CUCAAGUCCUGUGCUACACAUCGUAUGUACCGAAUCGGGAAAGGAAAGGAAAGGAAAGUAUUAUGUUACGCCGUUCGGAUCUGCACUUCC", "log2 enrichment": -0.816}
{"Oligonucleotide": "UAACUUUAGAGGAGGAUCUGAUGGAUAUGUCAGUGGACGUGGAUUUGGGGAUGGCUAUAAUGGGUAUGGAGGAGGACCUGGAGGUGGCAA", "log2 enrichment": 0.399}
{"Oligonucleotide": "UGGGAGGUGGAUUUUGUUUAUUUUUUUAGCUCAUUUCCAGGGGUGGGAAUUUUUUUUUAAUAUGUGUCAUGAAUAAAGAUGUUUUUGAAA", "log2 enrichment": 0.071}
{"Oligonucleotide": "AAGUCCUGUGCUACACAUCGUAUGUACCGAAUCGGUUUUUUUGGAAAGGAAAAAGGAAAGUAUUAUGUUACGCCGUUCGGAUCUGCACUU", "log2 enrichment": -1.5}
{"Oligonucleotide": "UCAAGUCCUGUGCUACACAUCGUAUGUACCGAAUCGGAAAGGAGGAAAAAAAGGAAAGUAUUAUGUUACGCCGUUCGGAUCUGCACUUCC", "log2 enrichment": -0.892}
{"Oligonucleotide": "CAAGUCCUGUGCUACACAUCGUAUGUACCGAAUCGGAAAAAGGAAAAAGGUUUGGAAAGUAUUAUGUUACGCCGUUCGGAUCUGCACUUC", "log2 enrichment": -1.44}
{"Oligonucleotide": "UAGUGAAAUUUCUAAUAUAUAUAUUUUUUUCUUUAGGAGAAGAAACGAAUGCAUCAGAUCAACAGAAUGAACCCCAGUUAGGCCUGAAAG", "log2 enrichment": -1.01}
{"data": "Block 2", "target": "Interferon regulatory factor 3, full length, phosphomimetic (IRF3, Homo sapiens, UniProt Q14653, residues 1-427, S386D/S396D/S398D/S402D/T404D/S405D)", "technique": "protein-binding microarray", "molecule type": "double-stranded DNA, one strand shown", "sample": "in vitro", "concentration": "2540 nM top", "notes": "60-bp whole probe", "added": "salmon DNA 0.4 mg/ml", "baseline": "random background probes", "reading": "higher = stronger binding", "all sequences stand within": "GCCTAGCAC … GTCTTGATTCGCTTGACGCTGCTG", "UniProt Q14653, sequence (whole entry, unmodified, looked up)": "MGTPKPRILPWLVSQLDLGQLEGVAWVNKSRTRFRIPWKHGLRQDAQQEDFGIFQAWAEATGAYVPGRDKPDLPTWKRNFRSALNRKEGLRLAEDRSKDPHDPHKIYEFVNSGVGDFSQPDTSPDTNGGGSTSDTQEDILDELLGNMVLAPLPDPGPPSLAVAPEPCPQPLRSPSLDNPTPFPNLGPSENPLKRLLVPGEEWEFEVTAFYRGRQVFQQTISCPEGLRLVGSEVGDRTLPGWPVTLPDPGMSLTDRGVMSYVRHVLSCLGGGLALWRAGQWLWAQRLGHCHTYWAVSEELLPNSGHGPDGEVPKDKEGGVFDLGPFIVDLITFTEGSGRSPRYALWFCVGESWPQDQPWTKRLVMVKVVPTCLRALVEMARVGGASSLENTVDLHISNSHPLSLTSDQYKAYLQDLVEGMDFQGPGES"}
{"Oligonucleotide": "GACGGTATCGGACCGGGGACGTGCTAG", "fitted relative affinity": "0.826 z-score"}
{"Oligonucleotide": "TCACCACCCACTCTGGCACTGTGCTAG", "fitted relative affinity": "-0.0609 z-score"}
{"Oligonucleotide": "CAGGTTTCTGATGGGCCTAGGTGCTAG", "fitted relative affinity": "1.13 z-score"}
{"Oligonucleotide": "TTAGGTTTCGGGACTGGGTTTGTGCTA", "fitted relative affinity": "4.02 z-score"}
{"Oligonucleotide": "TTAGGTATCCGACTGCTTTAGTGCTAG", "fitted relative affinity": "1.95 z-score"}
{"Oligonucleotide": "TCATGGTTCTTGCTTGGTACTGTGCTA", "fitted relative affinity": "-0.702 z-score"}
{"Oligonucleotide": "CTGCTCTGTGCACAGAAGACGTGCTAG", "fitted relative affinity": "0.436 z-score"}
{"Oligonucleotide": "TTAGGTAGCGACTATCGGTTAGTGCTA", "fitted relative affinity": "-0.252 z-score"}
{"Oligonucleotide": "GATGTTTTAGGTCCCTTTTCGTGCTAG", "fitted relative affinity": "2.75 z-score"}
{"Oligonucleotide": "GCCTACTCGCTCGTCCGGAGGTGCTAG", "fitted relative affinity": "0.607 z-score"}
{"data": "Block 3", "target": "RNA binding protein fox-1 homolog 2, RRM domain, GST-SBP tag (RBFOX2, Homo sapiens, UniProt O43251-10, residues 100-194)", "technique": "RNA Bind-n-Seq", "molecule type": "RNA", "sample": "in vitro", "concentration": "365 nM", "notes": "natural RNA segment, single round, ends assumed", "baseline": "no-protein control", "reading": "higher = stronger binding", "all sequences stand within": "GGGAGUUCUACAGUCCGACGAUC … UGGAAUUCUCGGGUGCCAA", "Target sequence (chain)": "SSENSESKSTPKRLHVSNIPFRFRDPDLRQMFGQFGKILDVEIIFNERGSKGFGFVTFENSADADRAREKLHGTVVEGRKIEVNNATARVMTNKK"}
{"Oligonucleotide": "UCAUUCUUGGAGGUGCUUUGAAAUUUUAGGUAGAAUAUAAUCGAAAUUAUGGAGGUUCCUUAGUGCUCAAUAAUAUAAGACCUGGUGUUAUUAGAACGAGUCUUUCUUAU", "RBNS enrichment (R)": 1.94}
{"Oligonucleotide": "CCCCUACCCAUUUUCUCUGGAGGUGUCCAGCCUCUUCCAACCCCCUCCCCAACUCUAGGGGAGAGCUGCUAGUGUGGAAAAUGACUGUUUUAUAAGGAAAUGGAGAAAAA", "RBNS enrichment (R)": 1.07}
{"Oligonucleotide": "ACUUGAAAGGACUGACCCCAUUGUCCCUUAGAAGUACUGACGUGUGCCAUCACGCAUUUAAGACAGGAUUGGACUGUCAUCUCGCAUCAGAAACCGUUACAAUUUCCUGU", "RBNS enrichment (R)": 0.623}
{"Oligonucleotide": "CAAGUGUCUCCCUCAGCUUGUGUCCCUUUUUUCCUCCCCUUUCUGUCCUGGGCCUCUGUGUAGAGCAUGGAGGAAGAAGACGACAAGUUGAUAGGUGUGGUGGACAGAGG", "RBNS enrichment (R)": 0.353}
{"Oligonucleotide": "CAAUACACAGGCAGUAUUCUAAAAUAGCACUGAACAGGGAGUCAGGAGACUAUUGUCUCCUAAACCCAGGACUAGAGUUCCCUCGUACUGUCACUCCUUUGGUCAUUAAA", "RBNS enrichment (R)": 0.442}
{"Oligonucleotide": "UUAGUACGUUUUGAUUUUAAACAGGACCUUUGUGUGGUCAGAUCCCACAGCACUGCCUGUCCUUUUUUUUUUAACUGGAAAGACCUCCUUCAGACACUCUGCCUCUUAGU", "RBNS enrichment (R)": 0.507}
{"Oligonucleotide": "UGUGAUUUCAUAGCGAGUUUUCUGACCAGCUUUUGCGGAGAUUUUGAACAGAACUGCUAUUUCCUCUAAUGAAGAAUUCUGUUUAGCUGUGGGUGUGCCGGGUGGGGUGU", "RBNS enrichment (R)": 1.3}
{"Oligonucleotide": "ACUCUAGGCAUGAGAGCACCGGGGACCAAGCCAUGUGGCUUUUUUUUUUUUUUUUUAAACUUUGCCUUCCUGGACAACUUAAGGUGUGUCUCUUAAUUCUCUCUUACAGU", "RBNS enrichment (R)": 0.623}
{"Oligonucleotide": "UGUACAUACAUGGGCUCAGCCCUGGGCCAAAUGUGCCUGAUGGGAACAGACUUGCAGGGCCAUGCAGGCCAGACUUCGUGCCUUAACUGAAGAGUGUGCGUGUGUGUGUG", "RBNS enrichment (R)": 0.364}
{"Oligonucleotide": "CCGCUCAGCCCAGCUGUUGGGAACAGCAUGGAGGCAGAUGUGGGGCUGAGCUGGGGAAUCAGGGUAAAAGGUGCAGGUGUGGAGAGAGAGGCUUCAAUCGGCUUGUGGGU", "RBNS enrichment (R)": 14.7}
{"Oligonucleotide": "CUGGGAACUUAUUAAAUGGAAACUGAAACUACUGCACCAUUUAAAAACAGGCAGCUCAUAAGAGCCACAGGUCUUUAUGUUGAGUCGCGCACCGAAAAACUAAAAAUAAU", "RBNS enrichment (R)": 0.386}
{"Oligonucleotide": "AUCUGUGAGAUGCUGUGGCCCAGCUGACGAGCCCUAACGUCCCCAGAACCGAGUGCCUAUGAGGACAGUGUCCGCCCUGCCCUCCGCAACGUGCAGUCCCUGGGCACGGC", "RBNS enrichment (R)": 0.303}
{"data": "Block 4", "target": "Sal-like protein 4, full length isoform A (SALL4, Homo sapiens, UniProt Q9UJQ4, residues 1-1053)", "technique": "universal PBM", "molecule type": "double-stranded DNA, one strand shown", "sample": "in vitro", "concentration": "600 nM", "notes": "8-mer, flanks averaged, mean of replicates", "reading": "higher = stronger binding", "UniProt Q9UJQ4, sequence (whole entry, looked up)": "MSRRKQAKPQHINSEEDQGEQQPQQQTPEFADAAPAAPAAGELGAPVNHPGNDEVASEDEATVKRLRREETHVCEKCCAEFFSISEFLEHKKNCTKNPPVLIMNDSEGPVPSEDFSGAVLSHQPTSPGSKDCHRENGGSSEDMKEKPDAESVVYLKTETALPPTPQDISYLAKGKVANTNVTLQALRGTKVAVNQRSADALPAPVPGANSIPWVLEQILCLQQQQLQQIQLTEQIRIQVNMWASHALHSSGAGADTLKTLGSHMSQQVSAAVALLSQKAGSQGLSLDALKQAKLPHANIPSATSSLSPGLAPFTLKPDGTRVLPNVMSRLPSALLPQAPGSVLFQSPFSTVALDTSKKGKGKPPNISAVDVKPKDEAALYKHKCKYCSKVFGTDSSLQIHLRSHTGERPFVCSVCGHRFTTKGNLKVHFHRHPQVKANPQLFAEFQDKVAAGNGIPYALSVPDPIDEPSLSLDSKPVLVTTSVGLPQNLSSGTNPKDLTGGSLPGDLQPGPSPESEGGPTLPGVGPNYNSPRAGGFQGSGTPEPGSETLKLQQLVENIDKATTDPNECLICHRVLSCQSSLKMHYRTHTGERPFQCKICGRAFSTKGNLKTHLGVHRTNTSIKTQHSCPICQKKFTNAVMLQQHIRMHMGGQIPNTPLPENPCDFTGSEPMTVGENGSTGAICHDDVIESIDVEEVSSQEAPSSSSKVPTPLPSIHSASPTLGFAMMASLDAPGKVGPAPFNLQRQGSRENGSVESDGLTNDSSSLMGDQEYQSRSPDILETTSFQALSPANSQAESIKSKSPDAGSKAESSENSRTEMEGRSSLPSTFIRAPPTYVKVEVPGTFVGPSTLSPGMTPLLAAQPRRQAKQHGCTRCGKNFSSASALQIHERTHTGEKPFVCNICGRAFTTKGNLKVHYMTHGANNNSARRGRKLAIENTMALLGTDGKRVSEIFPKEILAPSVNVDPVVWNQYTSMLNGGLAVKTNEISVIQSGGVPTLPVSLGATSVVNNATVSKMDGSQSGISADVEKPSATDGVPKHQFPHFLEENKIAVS"}
{"Oligonucleotide": "CGTTCGGC", "E-score": -0.228}
{"Oligonucleotide": "AGGGAGTG", "E-score": -0.232}
{"Oligonucleotide": "GTACCACA", "E-score": 0.117}
{"Oligonucleotide": "CAGCGGAC", "E-score": -0.186}
{"Oligonucleotide": "GGGTTAAA", "E-score": -0.0691}
{"Oligonucleotide": "CTCCGTGC", "E-score": -0.39}
{"Oligonucleotide": "GGCTGGAC", "E-score": -0.327}
{"Oligonucleotide": "ACGGGCCT", "E-score": -0.307}
{"Oligonucleotide": "TAATTACA", "E-score": 0.301}
{"Oligonucleotide": "CGTTTTTA", "E-score": 0.166}
{"Oligonucleotide": "GGCAAGGA", "E-score": -0.0332}
{"data": "Block 5", "target": "Histone acetyltransferase KAT6A, winged helix 1, GST fusion (KAT6A, Homo sapiens, UniProt Q92794, residues 1-85)", "technique": "protein binding microarray", "molecule type": "double-stranded DNA, one strand shown", "sample": "in vitro", "concentration": "not given", "notes": "8-mer, flanks averaged, mean of 2 arrays, mostly near background", "baseline": "not given", "reading": "higher = stronger binding", "Target sequence (chain)": "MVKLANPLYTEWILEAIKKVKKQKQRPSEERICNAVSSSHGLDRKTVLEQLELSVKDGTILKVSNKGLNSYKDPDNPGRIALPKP"}
{"Oligonucleotide": "TGCTTCAA", "E-score": -0.187}
{"Oligonucleotide": "AGCTTACT", "E-score": -0.0923}
{"Oligonucleotide": "AAGCCGGG", "E-score": 0.196}
{"Oligonucleotide": "CCGAAGAG", "E-score": 0.0278}
{"Oligonucleotide": "CCTTTGAA", "E-score": -0.167}
{"Oligonucleotide": "CTATTGAC", "E-score": -0.166}
{"Oligonucleotide": "ATACACCA", "E-score": -0.152}
{"Oligonucleotide": "ATTGTGTA", "E-score": -0.0762}
{"Oligonucleotide": "CAACAGCA", "E-score": -0.0842}
{"Oligonucleotide": "GGGGCCAC", "E-score": -0.0599}
{"Oligonucleotide": "ACGTGCGA", "E-score": 0.122}
{"Oligonucleotide": "GGTAGTAC", "E-score": 0.00758}
{"data": "Block 6", "target": "ABI1, truncated, D143A, DHFR fusion (Arabidopsis thaliana)", "technique": "DHFR PCA, deep sequencing", "sample": "yeast", "notes": "methotrexate growth selection, single substitutions", "added": "(+)-ABA 0.032 µM", "baseline": "wild-type fitted maximum", "reading": "higher = stronger binding", "starting sequence": "PYL1, truncated, DHFR fusion (Arabidopsis thaliana); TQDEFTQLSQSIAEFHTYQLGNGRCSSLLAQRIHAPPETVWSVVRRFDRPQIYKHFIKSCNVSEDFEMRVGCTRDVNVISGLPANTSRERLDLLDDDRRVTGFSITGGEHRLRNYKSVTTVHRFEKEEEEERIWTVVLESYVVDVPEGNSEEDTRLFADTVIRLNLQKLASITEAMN; partner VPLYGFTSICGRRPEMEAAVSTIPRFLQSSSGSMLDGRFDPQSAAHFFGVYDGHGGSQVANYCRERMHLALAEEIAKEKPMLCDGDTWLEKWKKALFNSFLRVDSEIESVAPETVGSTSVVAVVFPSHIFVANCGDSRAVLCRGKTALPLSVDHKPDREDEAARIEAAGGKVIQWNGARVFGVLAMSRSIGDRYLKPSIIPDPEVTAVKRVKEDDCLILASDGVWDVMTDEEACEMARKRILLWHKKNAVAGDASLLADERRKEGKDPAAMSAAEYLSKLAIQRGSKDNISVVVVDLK"}
{"Substitution": "L93M", "relative binding score [%]": 26}
{"Substitution": "D95Q", "relative binding score [%]": 25}
{"Substitution": "E128W", "relative binding score [%]": 5.61}
{"Substitution": "P146Q", "relative binding score [%]": 21.8}
{"Substitution": "N114D", "relative binding score [%]": 5.12}
{"Substitution": "V40C", "relative binding score [%]": -0.0778}
{"Substitution": "S150K", "relative binding score [%]": 8.65}
{"Substitution": "V62I", "relative binding score [%]": 11.9}
{"Substitution": "A84H", "relative binding score [%]": 69.7}
{"Substitution": "Q167I", "relative binding score [%]": -2.62}
{"Substitution": "G107V", "relative binding score [%]": 3.17}
{"Substitution": "V44I", "relative binding score [%]": 10.5}
{"Substitution": "C25N", "relative binding score [%]": -4.49}
{"Substitution": "D95T", "relative binding score [%]": 2.75}
{"Substitution": "V43C", "relative binding score [%]": -2.88}
